Measured values gathered from unrelated publications.
A part holds a random share of what one study measured. Positions count from the first letter of the parent shown.

Study 1 — method: protein binding microarray; form: double-stranded DNA, one strand shown; medium: in vitro; tested at: not given; baseline: not given; direction: higher = stronger binding
Target: Histone acetyltransferase KAT6A, both winged helices, GST fusion (KAT6A, Homo sapiens, UniProt Q92794, residues 1-181)
Notes: 8-mer, flanks averaged, mean of 2 arrays, mostly near background
Target sequence (chain): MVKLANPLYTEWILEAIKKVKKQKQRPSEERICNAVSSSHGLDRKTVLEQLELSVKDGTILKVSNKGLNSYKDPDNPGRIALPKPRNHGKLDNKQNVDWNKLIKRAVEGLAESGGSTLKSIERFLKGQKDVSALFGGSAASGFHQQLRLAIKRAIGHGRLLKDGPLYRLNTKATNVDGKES
Sequence | E-score
CATACGCG | 0.227
CACCCTAC | -0.188
AGGTGCCC | -0.0393
CTTCAGGC | -0.0165
AACCTGCC | -0.128
ACATTCGG | 0.0324
CGAATCCC | -0.0342
CAATATTC | -0.0994
CGCTTGAG | 0.17
CCCTTACC | 0.0672
AACAAGAC | -0.0727
GTGCCTGA | -0.0372
GCTGAATA | -0.0419
GGGCACCC | 0.0724
CGAGCTGC | -0.0145
AGGCTCTA | -0.0819
ATTGTTCC | 0.0934
CGATGATC | 0.0393
ACACGACG | 0.092
GGAGTAGA | -0.0767
AAGTTGGT | -0.225
ACTTCCGG | 0.133
GTGAACCA | -0.047

Study 2 — method: RNAcompete; form: RNA; medium: in vitro; tested at: 20 nM; notes: 7-mer, probes averaged, single round; baseline: mean of 7-mers; direction: higher = stronger binding
Target: PABPC1L2, full length, GST fusion (mouse, UniProt A0ABA7IW68)
Construct (chain): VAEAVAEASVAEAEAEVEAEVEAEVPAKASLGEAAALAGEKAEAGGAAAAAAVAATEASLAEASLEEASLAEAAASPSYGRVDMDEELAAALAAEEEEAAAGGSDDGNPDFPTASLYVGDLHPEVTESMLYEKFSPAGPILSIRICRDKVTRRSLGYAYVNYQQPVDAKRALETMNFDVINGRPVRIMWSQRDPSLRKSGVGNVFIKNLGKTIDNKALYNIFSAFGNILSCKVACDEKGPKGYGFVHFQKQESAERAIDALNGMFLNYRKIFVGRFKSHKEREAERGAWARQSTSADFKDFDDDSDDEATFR
Sequence | 7-mer Z-score
UUCUGCC | -0.217
AUAGGUA | -0.0409
UUCACCG | -0.349
GCAAAAG | 1.29
UCAACUC | -0.235
UUGAAAU | -0.193
UCGAUGC | -0.204
ACUAAGA | 0.186
GUUCGCU | -0.51
CUGAGAG | 0.000733
UCAUUCC | -0.432
CUAAGUC | -0.358
AAGAAUU | 0.249
CGACGAC | -0.0301
UAAGCGG | 0.0334
AUGAACG | 0.0823
UAUCGAG | -0.182
GCAGAGU | 0.0533

Study 3 — method: RNA Bind-n-Seq; form: RNA; medium: in vitro; tested at: 365 nM; baseline: no-protein control; direction: higher = stronger binding
Target: RNA binding protein fox-1 homolog 2, RRM domain, GST-SBP tag (RBFOX2, Homo sapiens, UniProt O43251-10, residues 100-194)
Notes: natural RNA segment, single round, ends assumed
All sequences stand within: GGGAGUUCUACAGUCCGACGAUC … UGGAAUUCUCGGGUGCCAA
Residues (chain): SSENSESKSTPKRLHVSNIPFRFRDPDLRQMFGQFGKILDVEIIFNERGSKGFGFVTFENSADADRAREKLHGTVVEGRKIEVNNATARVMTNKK
Sequence | RBNS enrichment (R)
UGGGCAAGUGGUUCUCAGCCAGGUUUCCGAUUGUCGAUUCAAGGAAGCAAAAGUAAUUUUUCUUGACAUUUGAGGACCUUCCUGAGGCUUCUAAAGUGUUCAUCCUGAUC | 0.299
ACUGUAGAGAAUCUUCUGUUUAGUCCGUGCUUUUUAUGUAGAAUUGGUUUUAUCUAAUAGUUUUACUAUGGAAAUCGCCUUUUGAUAUUAAAGCCAGAUUUUAGAGGUUU | 0.236
UAGUGGCACAUGCCUGUAAUCCCAGCUACCCGGGGAGGCUGAGGCAGGAGAAUUGCUUGAACUCAGAAGGCGGAGGCUGCAGUGAGCCGAGAUCGUGCCACUGCACUCCA | 0.613
UGUGGAUAUCUCCAUGGGAAGCUUGAACCAGGCUAGAACAGCUGUCUGCCAAAGAUACAAGAAUAUGCAAAGUCCCUCUUACCCCCCUCCUUCCCUCAAGUCUUAGUUGG | 0.294
AACCUAGGGGGUUGAUACAAUGUUACUGUAAUUGUGUGGGUGGGUGUCAUCCUUUGUGACAUUGUUACCCUGAGGUAUACUCCCUGCAGUGAGCUGGUCUUCCUGAAGUG | 0.789
GUGACCACAUACGUGUUAGGAGGCUGCAUGCUCUGGAAGCCUGGACUCUAAGCUGGAGCUCUUGGAAGAGCUCUUCGGUUUCUGAGCAUAAUGCUCCCAUCUCCUGAUUU | 2.96
CACAAAAACAAAAACCAGAACUAGUCAGAUUGAAACCAUACUGUUCCUCCAGAGCGGCGUUAGACAGGAUAGCGGUCCGCACCGGGGGCCGUGUUUAAGGGAGAUUGGAG | 0.786
GGAGAUCUGCCUUCCUACCCUCGGGAAGGGUCACCUAGAGGCUUCUCAGCCCCACCCUCACCCUCUGGCCAGGAUCCUACAAGGCUACAUCCCCUGCUGCUUGGUUGACC | 0.352
AGAAAAAUCUGAAGGUCAGCGGAGACCUCAGAGAAAACGGGGGCAAAGUGUCUUAGGCCAGAAGUACGCUGUAGCAUUGUAACAUUGUGCAGAUGGAGACACCCCACCCC | 0.478
GAAUGUAGUUCCCUACUCAGGCUUUCGUAGUGAUUAGCUUACUAAGGAACUGAAAAUGGGCCCCUUGUACAAGCUGAGCUGCCCCGGAGGGAGGGAGGAGUUCCCUGGGC | 0.718
AUCCUGUGUCUCCUGCUGUGUGGACACAUGUCACUCCUGCUCCACAUGCCAACAUGGUUCAUUUCCAAGGGCACCCUAUAACCAGAGAGCACAUUAAUUCCUGUCCUAUA | 1.07
GGUUUGAAUUCCUUUCUUUAAAGAUGUAGUGUCCCUUUCGGUAAGAAUGGAUCCUUUAUUUUUAAAAUAAUCAAAAUUUGAAUAAUUGCUACACAUGGUUGCUAUUUAUU | 0.643

Study 4 — target: CCNB1, cyclin fold, Cln2 fusion (human); method: yeast growth competition, sequencing; medium: yeast; notes: weak parent motif; baseline: not given; direction: higher = stronger binding
Starting sequence: E2F7 docking peptide (human); SSAQRRLEIPSGG
Change | normalised enrichment score
ASAQRRLEIPSGG [S1A] | 0.564
SSAQRRLAIPSGG [E8A] | 0.631
SSAQRRLEFPSGG [I9F] | 0.8
SSAQRALEIPSGG [R6A] | -0.304
SSAQRRLEIPSAG [G12A] | -0.249
SSAQRRLEIASGG [P10A] | 0.109
SSAQKRLEFPSGG [R5K I9F] | 0.369
SSAARRLEIPSGG [Q4A] | 0.323

Study 5 — method: RNA Bind-n-Seq; form: RNA; medium: in vitro; tested at: not given; baseline: input RNA pool; direction: higher = stronger binding
Target: RING finger protein unkempt homolog, zinc fingers 1-6, GST-SBP tag (UNK, Homo sapiens, UniProt Q9C0B0, residues 30-357)
Notes: RNA with constant flanks, human and mouse sites, ends assumed
All sequences stand within: GGGAGUUCUACAGUCCGACGAUC … CAACAGAGGAUUGAGCAUCA
Construct (chain): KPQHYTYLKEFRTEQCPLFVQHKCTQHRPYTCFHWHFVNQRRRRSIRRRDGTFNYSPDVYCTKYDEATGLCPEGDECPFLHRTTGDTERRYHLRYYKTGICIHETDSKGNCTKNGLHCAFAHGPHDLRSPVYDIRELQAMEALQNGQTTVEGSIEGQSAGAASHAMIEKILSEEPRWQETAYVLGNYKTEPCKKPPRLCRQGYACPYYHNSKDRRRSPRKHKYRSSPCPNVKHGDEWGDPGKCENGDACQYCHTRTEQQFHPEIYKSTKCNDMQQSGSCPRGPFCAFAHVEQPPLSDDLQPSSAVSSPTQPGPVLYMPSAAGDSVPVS
Sequence | bound/input enrichment
GAGAGCCGCCUGUCCUGGUUAGAUGGUUCGGGAUUAGGAUUCUCACUGGAAUACCCCACCAUUAGUUUACAUGCGGUGUCCAGGGAUCCAAACGCUUACCCUCAAGAGCAUUUGUAUGUU | 0.351 ratio
GCGUCGCCGGAAACCCAGGGAACCUCUCUGAAGUGACACCUCACCCCUACACACCGUCCGUUCACCCCCGUCUCUUCCUUCUGCUUUUCGGUUUUUGGAAAGGGAUCCAUCUCCAGGCAG | 0.135 ratio
CAGUGGGGGAACUCUGCCGGUAACCAGCUCCCCUUCUUGCAGGAGGGAGGGAGAAACAUACAUUUAUUCAUGCCGGUCUGUUGCAUGCAAGCUUCUUGGCUUCCUACCUUGCAACAAAAU | 0.132 ratio
AUUAAUAGGUAUAAGGAUUUUUCUUAUUAAUCUAAUAAAAUUCCUUAAUAGGAAUUUCCAUAGCUUAAGAGUGGUUUAUUUUAUCUGCAUCUUCUUUGGUGAUUGCAAAUCCCUUGUGAU | 0.883 ratio
AAUUCUGUUGAAGACAGUUGAGAAUUCCUUUGGAGAAAACAGCCCAGCUUGGCGUGGGGUUAGGUUGCUGUUUCAAAUAACUCACAGGCCCAGGUGACAUGGAAUCUUGGAGCAGCCUUG | 0.294 ratio
GCUGAUGCAAGUAAGGGUGAUGACCUGCUUCCUGCUGGCACUGAGGAUUAUAUCCAUAUAAGAAUUCAACAGAGAAACGGCAGGAAGACCCUUACUACUGUCCAAGGGAUCGCUGAUGAU | 0.0968 ratio
UGUGGUGGUAAUGUAAUAUUCAGAGUAUACUUUAAUGUUAGUGAGAAAUUCAGUUCUGCAUAGCAGGCUUUUGCUAACUUACCUCUUGAAAGUUUUGUGUCUCUGGGCAGUGGUGGCGAA | 1.09 ratio
GAGCAAAAACACAGGGAAGAACUGGAGCAAUUGAAGCAAUUGACUUUCAAGGACAGUAAGAUAGAUUCUGUUGCUGUUAACAUUUCAAACUUGGUACUUGAGAAUCAACCACCUCGGAUU | 0.272 ratio
CUCAUUCAGCUCCCCUGACCACAGAGGAAGAGGAUCACUGUGCUAAUGGACAGGACUGUAAUCUAAAUCCAGAGAUUGCCACAAUGUGGAUUGAUGAAAAUGCUGUUGCAGAAGACCAGU | 0.133 ratio
ACUACAAAGAGAAUUGUCGAGAACGGUCAAGAAAGAGUAGAAGUUGAAGAAGAUGGCCAGUUAAAGUCCUUAACAAUAAAUGGUAAGGAGCAGCUGCUGCGCUUGGAUAACAAGUAAUUC | 0.296 ratio
GGCACAUUUCCUGAUGCUCAGCUUCCAUCCAAAAGGAUCAUUGGCCCCAAAAACUAUGAGUUUUUGAAGUCGAAGAGAGAGGAGUUCCAGGAGUAUCUGCAGAAACUUGUGCAGCACCCG | 0.103 ratio

Study 6 — method: universal PBM; form: double-stranded DNA, one strand shown; medium: in vitro; tested at: not given; direction: higher = stronger binding
Target: Sal-like protein 4, full length isoform B (SALL4, Homo sapiens, UniProt Q9UJQ4-2, residues 1-616)
Notes: 8-mer, flanks averaged, mean of replicates
Construct (chain): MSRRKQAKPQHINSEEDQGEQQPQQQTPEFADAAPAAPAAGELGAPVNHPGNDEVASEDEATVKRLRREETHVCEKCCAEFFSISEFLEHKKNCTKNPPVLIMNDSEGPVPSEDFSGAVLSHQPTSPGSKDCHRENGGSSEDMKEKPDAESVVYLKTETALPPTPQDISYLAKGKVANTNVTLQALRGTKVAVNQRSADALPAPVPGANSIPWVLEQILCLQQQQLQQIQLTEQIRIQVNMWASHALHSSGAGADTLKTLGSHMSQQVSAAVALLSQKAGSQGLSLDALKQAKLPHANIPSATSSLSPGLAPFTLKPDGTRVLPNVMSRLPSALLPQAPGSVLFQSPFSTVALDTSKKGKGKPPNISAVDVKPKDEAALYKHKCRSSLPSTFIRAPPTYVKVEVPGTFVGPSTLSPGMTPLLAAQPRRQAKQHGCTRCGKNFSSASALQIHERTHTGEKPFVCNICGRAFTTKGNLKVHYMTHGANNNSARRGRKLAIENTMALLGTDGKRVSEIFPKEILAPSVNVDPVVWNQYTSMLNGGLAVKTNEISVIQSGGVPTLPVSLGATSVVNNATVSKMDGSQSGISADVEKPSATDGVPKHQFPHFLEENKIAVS
Sequence | E-score
CCGAGGCC | -0.377
GCGCTGAC | -0.232
AGCTGAAA | 0.118
ATTTTGCA | 0.317
ACGTTGGA | -0.143
ATGACGGC | -0.0621
TGACCACA | -0.00437
ATGGACGA | 0.123
GCCATAGC | 0.0329
AGGCCACC | -0.245
GGACCCAC | -0.232
AGATGACG | 0.0417
CAGAACCG | -0.24
AATGTGTA | 0.283
AAGCTCAA | -0.0224
CCGCGCCA | -0.213
CCTAGGAC | -0.124
TGACACCA | -0.0712
ATTTAAGC | 0.168

A few entries again (study 6):
Sequence | E-score
CCGAGGCC | -0.377
CCGCGCCA | -0.213
TGACCACA | -0.00437
AGGCCACC | -0.245
GCGCTGAC | -0.232
AGATGACG | 0.0417
AGCTGAAA | 0.118
ATTTTGCA | 0.317
ATGACGGC | -0.0621
TGACACCA | -0.0712
CCTAGGAC | -0.124
AATGTGTA | 0.283
